Experimental data from different studies.
Parts stem from different laboratories: compare values within a part only.

Block 1
Target: Histone acetyltransferase KAT6A, both winged helices, GST fusion (KAT6A, Homo sapiens, UniProt Q92794, residues 1-181)
Method: protein binding microarray
Molecule type: double-stranded DNA, one strand shown
Matrix: in vitro
Tested at: not given
Notes: 8-mer, flanks averaged, mean of 2 arrays, mostly near background
Relative to: not given
Direction: higher = stronger binding
Target sequence (chain): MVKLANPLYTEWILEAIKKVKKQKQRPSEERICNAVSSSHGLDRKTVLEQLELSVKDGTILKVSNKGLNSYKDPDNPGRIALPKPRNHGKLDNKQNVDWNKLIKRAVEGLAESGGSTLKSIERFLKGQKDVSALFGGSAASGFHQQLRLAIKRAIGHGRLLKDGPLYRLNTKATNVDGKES
Strand	E-score
GTCGCGCA	0.295
GTTACCAA	-0.0894
AACCCTTG	0.0252
GGTAAAAA	0.000605
GAGTCCAC	-0.0365
CTCCATGA	-0.0276
AACCACGC	0.149
CAAGGGGG	-0.245
GAGCTCAC	-0.046
GCGGAGTA	0.0867
AAAGGTCC	-0.0142
AGCACCTC	-0.128
CTCCGTAA	0.109
GTGGATTA	-0.0819
ACCAATCT	-0.202
TCAACAGA	-0.137
TGTTTAAA	-0.0698

Block 2
Target: RNA binding protein fox-1 homolog 2, RRM domain, GST-SBP tag (RBFOX2, Homo sapiens, UniProt O43251-10, residues 100-194)
Method: RNA Bind-n-Seq
Molecule type: RNA
Matrix: in vitro
Tested at: 365 nM
Notes: natural RNA segment, single round, ends assumed
Relative to: no-protein control
Direction: higher = stronger binding
Constant ends, left off below: GGGAGUUCUACAGUCCGACGAUC … UGGAAUUCUCGGGUGCCAA
Residues (chain): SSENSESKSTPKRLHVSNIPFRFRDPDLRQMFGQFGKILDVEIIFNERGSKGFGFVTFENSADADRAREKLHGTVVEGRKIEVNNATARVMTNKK
Strand	RBNS enrichment (R)
GACAGCCCCCCAACAGUAGUAGGCCCUCUGCUGGCUGCAGCCUCCCCAGCCUGCACCCAGACAUGCCAGUGCACAGGGCUUGGUUGGAAGCUCUGAGAGACCAAAUAACA	0.357
GCCCCAGCCAAAGGCGUGGCUGUCAGGGCUGGGCCCUGUAGUGCUGGACUCUCCCGGGCCACAAUAGGGACAGGGCAGGGACAGGGACAGCCCAGGUCACACGUGGGGUC	0.581
UAGCACUUUUUCAGAGUCUCCUAGGCGCUGUUGCAGCCCAGCUGGGGCAGCUAGCAUGCCAGGUUGGUCUUUAGGCACCAGAGUCUUUAACAAAAAAAUCCUCUAGUACU	0.857
AAUCUGUUAAGAUAUGUUUGGUGACCAAAACGUAUGUGUGAAUAUAGUUCUAGCACUUUUAAAUUUUUCCUUUCCAUACAACGCUUGGGCCAGCCUCUCUGUGCUGCGUG	0.803
AAAUAUUGUGAGUGUAUGAAAUGUGAAAUUAAAGCAAAAACUGGAGACUUUUAAUGUAUUUCUUUAAUUUGAAAUGUUUUGUGGAUUGUGAAAUAAAAAUAAAUUUAUGU	1.17
UCCAGAAACCACACUUAGUGGUAACCCUGGUGCUCUCUAGAAUCUCCAAAUGAGCUGCUAUAAAACACCUUUCAGGGGCUGAGAUGCAGCUCUGGUGUGAGUCACUUACC	0.214
UCACAAGGGAAUAGAAGCAGAAGAAGCUGAGAGCCUCCCUAUUCCCAGAUGCCCUGGUGGAAUGACCUGCCUCUCUGCCGUUUCUGCCAACGUGUUGGUGCUAUAAGCUG	0.508
CUACAUGUAAGACAUAUGUUACUGUGUGGAGGACAUAAAACUUUUCAGUUCUGGGGUGGCCAUUGCAUUCACUAAUCAGGGUCUGAAAAGGGAGGUGUGUGUGUGUGUGU	0.556
UAAGCAGCGAUGGGUUCAGUGUUGUGUGUGGUGAAUACUGUAUUUUGUUUCAGUUCUGUCUCCCAGAUAAUGUGAAAACGGUCCAGGAGAAGGCAGCUUCCUAUAUGCAG	1.48
GAGCCUGCAUUUCCCUGCUAUUGUAGGGAUUCCUACUGGGAGACCUCGAGGGGUAGCUGUCUCCUGCAGAGACAAGAGCCGAAGCACUGGUCUCAUUGAAGACGACACGU	0.341
UUAAAAAAAAAAUCUCGGCAGACAUAAGAGAACACAACCCCCCAUGCACAUCUGUAAAUGACUGUAUGGUUAUGAUUAUAGUACCACGAAAAAUCAUGUUAUUUUUUUUU	0.746
GGGAGACAGAUGGCCCUAACUACUCAGUGACAGAGGCAGUUACUGUGAGAGACUUGUAGGAAUUUUUUUCUUCUCCUAGCGAAGUCAAAGCUCUCUCUGAAUGUACUGUG	0.627

Block 3
Target: Prothrombin, mature alpha-thrombin (F2, Homo sapiens, UniProt P00734)
Method: aptamer microarray, sandwich
Molecule type: DNA with 2'F-ANA
Matrix: in vitro
Tested at: 200 nM
Notes: whole 15-mer aptamer, many near background
Added: Cy3 exosite-II aptamer, 400 nM
Direction: higher = stronger binding
Strand: GGTTGGTGTGGTTGG
Modification	mean fluorescence intensity [a.u.]
2'F-ANA at 3 4 6 7 14	302
2'F-ANA at 2 3 6 8 11	691
2'F-ANA at 2 3 5 6 9 11 12 14 15	102
2'F-ANA at 1 3 5 6 8 9 13 14 15	48.7
2'F-ANA at 1 2 3 9 10 11 12 15	129
2'F-ANA at 1 2 3 4 5 8 9 11 12 13 14 15	48.1
2'F-ANA at 2 3 5 9 10 15	56.2
2'F-ANA at 1 3 4 5 9 10 11 13	43.1
2'F-ANA at 1 2 4 5 6 7 8 9 14 15	60.4
2'F-ANA at 1 2 3 4 6 10 13 14 15	49.2
2'F-ANA at 1 2 4 5 6 9 10 12 14	46.8
2'F-ANA at 1 2 6 7 10 11 12 14	43.5
2'F-ANA at 2 3 4 6 7 8 9 10 11	216
2'F-ANA at 2 4 5 7 8 9 10 11 14	75.4
2'F-ANA at 1 3 7 8 9 10 11 12 13 14 15	64.8
2'F-ANA at 4 7 8 9 13	229
2'F-ANA at 6 7 9 10 11 14 15	109
2'F-ANA at 5 7 9 11 13 15	51.4
2'F-ANA at 1 2 5 6 7 9 10 11 13 15	51.8
2'F-ANA at 3 4 8 10 11 12	318
2'F-ANA at 1 3 4 5 7 8 13 15	55.3
2'F-ANA at 2 3 6 9 10 11 15	296
2'F-ANA at 1 2 3 4 6 11 12 14	64.1
2'F-ANA at 1 3 4 5 6 7 12 14 15	63.2
2'F-ANA at 1 2 3 6 7 9 10 13 15	61.7

Block 4
Target: Ras GTPase-activating protein-binding protein 1, RRM domain (G3BP1, Homo sapiens, UniProt Q13283)
Sequence of UniProt Q13283 (whole entry, looked up): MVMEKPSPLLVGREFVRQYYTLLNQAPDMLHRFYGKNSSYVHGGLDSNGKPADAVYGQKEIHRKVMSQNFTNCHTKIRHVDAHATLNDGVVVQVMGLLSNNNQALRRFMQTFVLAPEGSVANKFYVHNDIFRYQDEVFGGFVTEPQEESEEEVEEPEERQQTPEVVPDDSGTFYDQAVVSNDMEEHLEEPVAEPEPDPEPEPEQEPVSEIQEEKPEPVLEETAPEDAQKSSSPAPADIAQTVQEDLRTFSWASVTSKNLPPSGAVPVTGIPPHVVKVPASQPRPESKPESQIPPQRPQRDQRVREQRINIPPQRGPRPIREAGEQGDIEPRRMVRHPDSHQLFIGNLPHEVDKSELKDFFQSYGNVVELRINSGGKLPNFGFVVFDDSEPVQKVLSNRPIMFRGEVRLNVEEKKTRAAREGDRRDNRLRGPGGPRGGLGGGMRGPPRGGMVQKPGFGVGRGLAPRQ
Method: RNA Bind-n-Seq
Molecule type: RNA
Matrix: in vitro
Tested at: 1 µM
Notes: whole 134-nt RNA, ends assumed
Added: 150 mM KCl
Relative to: input library
Direction: higher = stronger binding
Constant ends, left off below: GGGAGUUCUACAGUCCGACGAUC … UGGAAUUCUCGGGUGUCAAGG
Strand	log2 enrichment
ACCAUGCAGGUGGGCAUCUUUGGGAAGUGGGGCAAGGGGGGGAUAGGGAGGGGGGUAACACCUUGGGAACAGGUGGUCCCAGGUCGUUUC	1.02
UCCUGUGCUACACAUCGUAUGUACCGAAUCGGGGUUUGGGGUUUUUUUGGGGAAAGGGGAAAGUAUUAUGUUACGCCGUUCGGAUCUGCA	1.12
UAACUUUAGAGGAGGAUCUGAUGGAUAUGGCAGUGGACGUGGAUUUGGGGAUGGCUGUAAUGGGUAUGGAGGAGGACCUGGAGGUGGCAA	-0.56
AAGUCCUGUGCUACACAUCGUAUGUACCGAAUCGGGUUUGGGAGGGAAAAAAAGGGAAAGUAUUAUGUUACGCCGUUCGGAUCUGCACUU	0.117
CCUCAAGUCCUGUGCUACACAUCGUAUGUACCGAAUCGGGAGGGGAGGGAGGAAAGUAUUAUGUUACGCCGUUCGGAUCUGCACUUCCAG	-0.012
UGGCCCUGGUGGGAUGCGGGGAGGAAGAGGUGGCCUCAUGGAUCGUGGUGGUCCCGGUGGAAUGUUCAGAGGUGGCCGUGGUGGAGACAG	0.882
GCAGGAAGUAAAAACAAAUGGAAAUGCUUCGGAUAGUGGCAGGGGUGGGGGUUGCCAAGGAAAGGGUGGGAUGGGAGUGGGUAAAGAGUU	1.5
CUGUGCUACACAUCGUAUGUACCGAAUCGGUUUUUUUGGGGUUUUUUUGGGGUUUUUUUGGGAAAGUAUUAUGUUACGCCGUUCGGAUCU	-0.219
GUCCUGUGCUACACAUCGUAUGUACCGAAUCGGAAAAAAAGGAAAAAGGUUUUUUUGGAAAGUAUUAUGUUACGCCGUUCGGAUCUGCAC	-0.0204
GCAGGAAGUAAAAACAAAUGGAAAUGCUUCGGAUAGUAGCAGGGGUGGGGGUUGCUAAGGAAAGGGUGGGAUGGGAGUGGGUAAAGAGUU	0.776
GCAGGAAGUAAAAACAAAUGGAAAUGCUUCGGAUAGUGGCAGGGGUCGGGGUUGCUAAGGAAAGGGUGGGAUGGGAGUGGGUAAAGAGUU	0.899
CCUGUGCUACACAUCGUAUGUACCGAAUCGGGGAAAAAAAGGGGUUUUUGGGGUUUGGGGAAAGUAUUAUGUUACGCCGUUCGGAUCUGC	0.835
UGGCACUGGUGGCAUGCGGGGAGGAAGAGGUGGCCUCAUGGAUCGUGGUGGUCCCGGUGGAAUGUUCAGAGGUGGCCGUGGUGGAGACAG	0.389
CUCAAGUCCUGUGCUACACAUCGUAUGUACCGAAUCGGGUUGGGUUGGGUUGGAAAGUAUUAUGUUACGCCGUUCGGAUCUGCACUUCCA	-0.182

Repeated from above (block 1):
Strand	E-score
GAGTCCAC	-0.0365
CTCCATGA	-0.0276
GGTAAAAA	0.000605
GTTACCAA	-0.0894
TCAACAGA	-0.137
TGTTTAAA	-0.0698
GAGCTCAC	-0.046
ACCAATCT	-0.202
CTCCGTAA	0.109
AACCACGC	0.149
AAAGGTCC	-0.0142
